Assay results of several laboratories.
A part holds a random share of what one study measured. Values joined by “and” are separate records of one study, mostly repeats; a detail may differ.

Block 1 — method: microarray; baseline: untreated
SMILES: COCCCCCCC1CC2C(CCC3(C)C(O)CCC23)c2ccc(O)cc21 (centres unmarked)
It gave -0.375 for “log2 fold change” (A549; item: ACTA2; 50 µM).
For A549; item: GZMK; 10 µM: “log2 fold change” read 3.91.
For A549; item: ADAMTS8; 10 µM: “log2 fold change” read -0.168.
The “log2 fold change” was 0.0992 (A549; item: ISG20L1; 10 µM).
The “log2 fold change” was -0.982 (PANC-1; item: ADAMTS8; 10 µM).
A549; item: ACTA2; 10 µM — “log2 fold change”: 0.197.
For PANC-1; item: UBB; 50 µM: “log2 fold change” read -0.489.
The “log2 fold change” was -0.654 (SK-OV-3; item: ADAMTS8; 10 µM).

Block 2 — species: NSG mice, sample B SCLC PDX; route: oral; dose: 100 mg/kg twice daily
SMILES: CC(C)C[C@@H]1NC(=O)[C@@H](N(C)C(=O)[C@@H](NC(=O)[C@@H]2C[C@@H](F)CN2C(=O)C2(C(F)(F)F)CC(F)(F)C2)C2CC2)CCCCCCCN(C)C(=O)[C@H](Cc2cc(Cl)cnc2OC2CC2)N(C)C1=O
day 22 — tumour volume: 247 mm3 and 238 mm3 and 323 mm3 and 226 mm3 and 230 mm3.
day 15 — tumour volume: 210 mm3 and 233 mm3 and 211 mm3 and 235 mm3 and 208 mm3.
For day 19: tumour volume read 312 mm3 and 206 mm3 and 203 mm3 and 224 mm3 and 265 mm3.

Block 3 — cell line: HCC1569; method: in-cell western; item: CDK1 phospho-Thr14; concentration: 10000 nM
Cc1ccc(O)c(C)c1-c1cnc2[nH]c(-c3cnc(N4CCC(CCN5CCN(c6ccc(N7CCC(=O)NC7=O)cc6F)CC5)CC4)nc3)cc2c1C#N: “pCDK1 (Thr14) level” 100 RLU and 105 RLU.
Under “pCDK1 (Thr14) level”, Cc1ncc(-c2cc3c(C(F)(F)F)c(-c4c(C)ccc(O)c4C)cnc3[nH]2)cn1 is recorded as 76.2 RLU and 79.1 RLU.
Cc1ncc(-c2cc3c(C(N)=O)c(-c4c(C)ccc(O)c4C)cnc3[nH]2)cn1: “pCDK1 (Thr14) level” 31.1 RLU and 31.3 RLU.
Under “pCDK1 (Thr14) level”, Cc1ncc(-c2cc3c(N)c(-c4c(C)ccc(O)c4C)cnc3[nH]2)cn1 is recorded as 39.3 RLU and 33 RLU.
Under “pCDK1 (Thr14) level”, Cc1ccc(O)c(C)c1-c1cnc2[nH]c(-c3cnc(N4CCC(CN5CCN(c6ccc7c(c6)CN(C6CCC(=O)NC6=O)C7=O)CC5)CC4)nc3)cc2c1C#N (centres unmarked) is recorded as 107 RLU and 111 RLU.

Single results of other studies
The IL-2 level of Cn1cc(-c2cccc(CN3CCC4(CC3)COc3c4ccc4c3CN([C@H]3CCC(=O)NC3=O)C4=O)c2)cn1 is reported as 150 pg/mL and 139 pg/mL and 154 pg/mL (Jurkat; 10 nM, 24 h, added: CD3/CD28 beads, 1:4).

For quick reference, copied from above (single results of other studies):
The IL-2 level of Cn1cc(-c2cccc(CN3CCC4(CC3)COc3c4ccc4c3CN([C@H]3CCC(=O)NC3=O)C4=O)c2)cn1 is reported as 150 pg/mL and 139 pg/mL and 154 pg/mL (Jurkat; 10 nM, 24 h, added: CD3/CD28 beads, 1:4).
